Measurements from different studies.
Each line is one published result; not all experiments were run side by side. ± gives the spread as reported.

SMILES | assay | system | setting | scale | quantity | value
O=c1c(O)c(-c2cc(O)c(O)c(O)c2)oc2cc(O)cc(O)c12 | mass spectrometry | Caco-2 | 40 µM, 6 h |  | Papp A→B | 5.55 ×10⁻⁶ cm/s
CN[C@H](CC(C)C)C(=O)N[C@H]1C(=O)N[C@@H](CC(N)=O)C(=O)N[C@H]2C(=O)N[C@H]3C(=O)N[C@H](C(=O)N[C@H](C(=O)O)c4cc(O)cc(O)c4-c4cc3ccc4O)[C@H](O)c3ccc(c(Cl)c3)Oc3cc2cc(c3O[C@@H]2O[C@H](CO)[C@@H](O)[C@H](O)[C@H]2O[C@H]2C[C@](C)(N)[C@H](O)[C@H](C)O2)Oc2ccc(cc2Cl)[C@H]1O |  | pig, plasma | intravenous, 1000 mg, with: MIC 4 µg/mL |  | time to reach MIC | 3 min
CCN(c1cc(C#CCN2CCOCC2)cc(C(=O)NCc2c(C)cc(C)[nH]c2=O)c1C)[C@H]1CC[C@H](N(C)CCOC)CC1 |  | human liver microsomes | well-stirred model |  | scaled intrinsic clearance | 6 ± 0.5 mL/min/kg
Cn1c(-c2ccc(C(N)=O)cc2F)nnc1C(C)(C)Oc1c(F)cc(Cl)cc1F |  | young non-Japanese subjects, plasma | oral, 20 mg single dose, day 1 |  | AUC(0-inf) median | 2840 ng·h/mL
CS(=O)(=O)OC[C@H](O)[C@@H]1CO1 |  | Wistar rat, male, red blood cell lysate | intraperitoneal, 500 mg/kg of treosulfan, 4 h |  | concentration | 4.5 µM
CCCCC1(CCCC)CN(c2ccccc2)c2cc(SC)c(OCC(=O)N[C@@H](C(=O)NCC(=O)O)c3ccccc3)cc2S(=O)(=O)C1 |  | human, plasma | oral, 5 mg once daily, day 1, geometric mean |  | AUC(0-t) | 0.559 ng·h/mL
NC(=O)c1cnc2[nH]ccc2c1N[C@@H]1[C@@H]2CC3C[C@H]1C[C@@](O)(C3)C2 |  | Japanese, moderate hepatic impairment (Child-Pugh B), plasma | oral, 150 mg single dose, mean |  | AUC(0-last) | 2320 ng·h/mL
CC(C)=CCC[C@](C)(O[C@@H]1O[C@H](CO)[C@@H](O)[C@H](O)[C@H]1O)[C@H]1CC[C@]2(C)[C@@H]1[C@H](O)C[C@@H]1[C@@]3(C)CC[C@H](O)C(C)(C)[C@@H]3[C@@H](O[C@@H]3O[C@H](CO)[C@@H](O)[C@H](O)[C@H]3O)C[C@]12C |  | Sprague Dawley rat, male, small intestine site 4 contents | oral, 0.3 g/kg TU-100, 2 h, no β-glucuronidase treatment | reference: ingested amount | recovery | 28.3%
CCN(CC)C(=S)SSC(=S)N(CC)CC | shake-flask | Captex 355 | 37 °C |  | thermodynamic solubility | 54.7 ± 2.39 mg/g
CC(=O)Oc1ccccc1C(=O)O |  | male Hartley guinea pig, anaesthetized | intravenous infusion, 10 mg/kg, 10 min infusion | reference: baseline | QTc change | 2.5 ± 1.8%
Cc1cc(-n2c(=O)[nH]c(=O)n(C)c2=O)ccc1Oc1ccc(SC(F)(F)F)cc1 | shake-flask | PEG400 | 37 °C |  | thermodynamic solubility | 18.3 ± 2.27 mg/g
CC[C@H](C)CCCCC(=O)N[C@@H](CCN)C(=O)N[C@H](C(=O)N[C@@H](CCN)C(=O)N[C@H]1CCNC(=O)[C@H]([C@@H](C)O)NC(=O)[C@H](CCN)NC(=O)[C@H](CCN)NC(=O)[C@H](CC(C)C)NC(=O)[C@@H](Cc2ccccc2)NC(=O)[C@H](CCN)NC1=O)[C@@H](C)O | UPLC-MS/MS | intensive care patients Overall, plasma | iv, dose not given, 6 h post-dose, steady state, polymyxin B dosing |  | mid-interval concentration | 3000 ± 1100 ng/mL
Cc1nc2cccc(OCC(C)(C)C(=O)NC(C)C)c2c(N)c1C(=O)O |  | Sprague-Dawley rat (both sexes), plasma | dietary, 60 mg/kg/day, day 7 |  | Cmax | 27.2 ng/mL
COc1c(OCCCN2CCOCC2)ccc2c1N=C(NC(=O)c1cnc(N)nc1)N1CCN=C21 |  | human patients, plasma | intravenous, 0.4 mg/kg 3 weeks on 1 week off, cycle 1 day 1 |  | AUC(0-25 h) | 693 ng·h/mL
O=C1N=C(N2CCOCC2)CN1c1ccc(Cl)cc1 |  | beagle dog, both sexes, plasma | oral, 30 mg/kg, day 0, tablets, single dose |  | apparent oral clearance | 4.75 mL/min/kg
C[C@]12CC[C@@H]3c4ccc(O)cc4CC[C@H]3[C@@H]1C[C@@H](O)[C@@H]2O | GC-MS | breast cancer women on NSAI, serum | vaginal, 0.03 mg daily, 4 h, day 28 |  | mean serum concentration | 0.00312 ng/mL
CC(=O)N[C@@H](Cc1ccccc1)C(=O)N[C@H]1CCCNC(=O)[C@H](CCCNC(=N)N)NC(=O)[C@H](Cc2c[nH]c3ccccc23)NC(=O)[C@@H](CC2CCCCC2)NC(=O)[C@@H]2CCCN2C1=O |  | C57BL/6J mouse, plasma | intravenous, 1 mg/kg single dose |  | Cmax | 17400 ng/mL
O=C(O)c1cc(-c2ccc(F)cc2F)ccc1O | shake-flask | soybean oil | 37 °C |  | thermodynamic solubility | 7.86 ± 0.59 mg/g

For quick reference, copied from above:
SMILES | assay | system | setting | scale | quantity | value
CCCCC1(CCCC)CN(c2ccccc2)c2cc(SC)c(OCC(=O)N[C@@H](C(=O)NCC(=O)O)c3ccccc3)cc2S(=O)(=O)C1 |  | human, plasma | oral, 5 mg once daily, day 1, geometric mean |  | AUC(0-t) | 0.559 ng·h/mL
CC(C)=CCC[C@](C)(O[C@@H]1O[C@H](CO)[C@@H](O)[C@H](O)[C@H]1O)[C@H]1CC[C@]2(C)[C@@H]1[C@H](O)C[C@@H]1[C@@]3(C)CC[C@H](O)C(C)(C)[C@@H]3[C@@H](O[C@@H]3O[C@H](CO)[C@@H](O)[C@H](O)[C@H]3O)C[C@]12C |  | Sprague Dawley rat, male, small intestine site 4 contents | oral, 0.3 g/kg TU-100, 2 h, no β-glucuronidase treatment | reference: ingested amount | recovery | 28.3%
CS(=O)(=O)OC[C@H](O)[C@@H]1CO1 |  | Wistar rat, male, red blood cell lysate | intraperitoneal, 500 mg/kg of treosulfan, 4 h |  | concentration | 4.5 µM
